Experimental data of several laboratories.
Each line is one published result; not all experiments were run side by side. ± gives the spread as reported.
CYP2C9: Cytochrome P450 2C9 (CYP2C9, Homo sapiens, UniProt P11712)
ABCB1: ATP-dependent translocase ABCB1 (ABCB1, Homo sapiens, UniProt P08183)
KCNH2: Voltage-gated inwardly rectifying potassium channel KCNH2 (KCNH2, Homo sapiens, UniProt Q12809)
AHR: Aryl hydrocarbon receptor (AHR, Homo sapiens, UniProt P35869)
ALDH1A2: Retinal dehydrogenase 2 (ALDH1A2, Homo sapiens, UniProt O94788)
CYP2D6: Cytochrome P450 2D6 (CYP2D6, Homo sapiens, UniProt P10635)

Chains of the proteins cited; added tags and fusions are not shown. Residues count along the entry.
UniProt P11712, whole entry: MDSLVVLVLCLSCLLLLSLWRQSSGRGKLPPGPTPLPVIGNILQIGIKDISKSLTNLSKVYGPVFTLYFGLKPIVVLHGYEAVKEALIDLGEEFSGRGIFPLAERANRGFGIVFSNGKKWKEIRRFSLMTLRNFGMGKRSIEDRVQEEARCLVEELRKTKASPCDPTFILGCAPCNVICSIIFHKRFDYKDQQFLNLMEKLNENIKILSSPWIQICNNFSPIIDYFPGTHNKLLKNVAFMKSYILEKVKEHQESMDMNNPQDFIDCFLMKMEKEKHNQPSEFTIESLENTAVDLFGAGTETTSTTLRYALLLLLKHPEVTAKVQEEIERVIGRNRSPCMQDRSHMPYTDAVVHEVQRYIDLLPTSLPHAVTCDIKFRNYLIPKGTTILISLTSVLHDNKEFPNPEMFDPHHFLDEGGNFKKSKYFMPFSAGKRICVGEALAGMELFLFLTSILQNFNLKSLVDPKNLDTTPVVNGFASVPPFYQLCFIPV
UniProt P08183, whole entry: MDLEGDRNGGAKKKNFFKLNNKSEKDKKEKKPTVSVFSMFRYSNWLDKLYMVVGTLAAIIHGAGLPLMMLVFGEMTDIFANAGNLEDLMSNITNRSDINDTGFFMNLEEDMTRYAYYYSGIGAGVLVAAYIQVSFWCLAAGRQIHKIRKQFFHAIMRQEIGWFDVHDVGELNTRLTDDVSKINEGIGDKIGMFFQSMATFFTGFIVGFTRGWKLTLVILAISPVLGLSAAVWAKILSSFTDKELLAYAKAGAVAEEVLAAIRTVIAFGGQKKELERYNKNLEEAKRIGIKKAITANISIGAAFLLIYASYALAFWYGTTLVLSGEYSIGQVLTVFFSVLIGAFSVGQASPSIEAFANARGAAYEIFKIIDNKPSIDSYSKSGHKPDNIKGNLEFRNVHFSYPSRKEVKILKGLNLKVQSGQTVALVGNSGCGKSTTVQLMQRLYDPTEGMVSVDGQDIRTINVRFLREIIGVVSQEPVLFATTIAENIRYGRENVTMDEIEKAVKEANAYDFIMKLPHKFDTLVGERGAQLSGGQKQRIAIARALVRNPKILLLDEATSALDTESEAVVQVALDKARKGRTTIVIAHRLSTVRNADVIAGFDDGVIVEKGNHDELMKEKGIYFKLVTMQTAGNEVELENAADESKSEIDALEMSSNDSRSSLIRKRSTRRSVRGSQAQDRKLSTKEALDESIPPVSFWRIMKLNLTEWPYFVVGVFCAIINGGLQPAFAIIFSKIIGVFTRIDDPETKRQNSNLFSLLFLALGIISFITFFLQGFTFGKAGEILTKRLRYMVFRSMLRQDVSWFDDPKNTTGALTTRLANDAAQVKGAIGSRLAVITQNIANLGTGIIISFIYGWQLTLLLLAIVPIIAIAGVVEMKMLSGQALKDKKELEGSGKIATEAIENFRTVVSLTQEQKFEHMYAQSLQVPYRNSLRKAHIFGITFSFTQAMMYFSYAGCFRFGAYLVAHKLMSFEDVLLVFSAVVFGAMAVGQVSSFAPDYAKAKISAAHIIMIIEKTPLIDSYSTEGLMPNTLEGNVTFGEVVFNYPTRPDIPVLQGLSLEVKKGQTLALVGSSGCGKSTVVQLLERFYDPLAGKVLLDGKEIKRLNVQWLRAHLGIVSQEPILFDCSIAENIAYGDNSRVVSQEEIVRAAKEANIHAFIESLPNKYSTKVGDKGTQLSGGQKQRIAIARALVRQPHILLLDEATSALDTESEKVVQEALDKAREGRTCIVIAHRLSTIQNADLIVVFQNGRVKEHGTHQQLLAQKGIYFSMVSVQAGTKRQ
UniProt Q12809, whole entry: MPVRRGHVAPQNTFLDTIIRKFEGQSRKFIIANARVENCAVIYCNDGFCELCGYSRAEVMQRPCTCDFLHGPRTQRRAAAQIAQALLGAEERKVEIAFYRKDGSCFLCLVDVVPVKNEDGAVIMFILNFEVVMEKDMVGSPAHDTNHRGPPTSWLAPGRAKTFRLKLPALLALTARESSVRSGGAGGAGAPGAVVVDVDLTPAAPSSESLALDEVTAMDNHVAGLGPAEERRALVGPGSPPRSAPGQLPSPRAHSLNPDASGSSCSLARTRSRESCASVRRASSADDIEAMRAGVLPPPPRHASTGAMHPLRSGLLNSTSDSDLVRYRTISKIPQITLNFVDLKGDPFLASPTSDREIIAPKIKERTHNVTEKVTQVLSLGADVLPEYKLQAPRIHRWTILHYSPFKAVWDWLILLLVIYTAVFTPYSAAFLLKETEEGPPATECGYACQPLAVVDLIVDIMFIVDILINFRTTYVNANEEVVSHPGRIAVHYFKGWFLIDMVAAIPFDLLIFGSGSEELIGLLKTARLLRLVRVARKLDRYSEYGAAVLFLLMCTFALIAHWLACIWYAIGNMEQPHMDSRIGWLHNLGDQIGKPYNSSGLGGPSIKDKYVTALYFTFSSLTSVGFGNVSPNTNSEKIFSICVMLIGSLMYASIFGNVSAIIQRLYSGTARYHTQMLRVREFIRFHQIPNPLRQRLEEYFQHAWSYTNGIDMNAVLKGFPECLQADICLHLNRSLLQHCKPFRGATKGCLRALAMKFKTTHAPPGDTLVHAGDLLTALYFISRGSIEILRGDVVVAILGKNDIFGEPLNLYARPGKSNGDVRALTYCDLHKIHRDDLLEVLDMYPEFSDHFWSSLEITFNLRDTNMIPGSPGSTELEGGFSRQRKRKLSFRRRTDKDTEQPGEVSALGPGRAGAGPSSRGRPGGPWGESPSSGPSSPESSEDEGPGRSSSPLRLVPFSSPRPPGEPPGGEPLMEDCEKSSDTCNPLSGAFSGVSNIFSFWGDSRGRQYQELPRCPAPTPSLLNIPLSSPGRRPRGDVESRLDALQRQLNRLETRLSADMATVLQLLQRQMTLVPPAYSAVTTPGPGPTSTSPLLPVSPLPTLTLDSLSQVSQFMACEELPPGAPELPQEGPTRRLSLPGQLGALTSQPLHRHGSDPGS
UniProt P35869, whole entry, looked up: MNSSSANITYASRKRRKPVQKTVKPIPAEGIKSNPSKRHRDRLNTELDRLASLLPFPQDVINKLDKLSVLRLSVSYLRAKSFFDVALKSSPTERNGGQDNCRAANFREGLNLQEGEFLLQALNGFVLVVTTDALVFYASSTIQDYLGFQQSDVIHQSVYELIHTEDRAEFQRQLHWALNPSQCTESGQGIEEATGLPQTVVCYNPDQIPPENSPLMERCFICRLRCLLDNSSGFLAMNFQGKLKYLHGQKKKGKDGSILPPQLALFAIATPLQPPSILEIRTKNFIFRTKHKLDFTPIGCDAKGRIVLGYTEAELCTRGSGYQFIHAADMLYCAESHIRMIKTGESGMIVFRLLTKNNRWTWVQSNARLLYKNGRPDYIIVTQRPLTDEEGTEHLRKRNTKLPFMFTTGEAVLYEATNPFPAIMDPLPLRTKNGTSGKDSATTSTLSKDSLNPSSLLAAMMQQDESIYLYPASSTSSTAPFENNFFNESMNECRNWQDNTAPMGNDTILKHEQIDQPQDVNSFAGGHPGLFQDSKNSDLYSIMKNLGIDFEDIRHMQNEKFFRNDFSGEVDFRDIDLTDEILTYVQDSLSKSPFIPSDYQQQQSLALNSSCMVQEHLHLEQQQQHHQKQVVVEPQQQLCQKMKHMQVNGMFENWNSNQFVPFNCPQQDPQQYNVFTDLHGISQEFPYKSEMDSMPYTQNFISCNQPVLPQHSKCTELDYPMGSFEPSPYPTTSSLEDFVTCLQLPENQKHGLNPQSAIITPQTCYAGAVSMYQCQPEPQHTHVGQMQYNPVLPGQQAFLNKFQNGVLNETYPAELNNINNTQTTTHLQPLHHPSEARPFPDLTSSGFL
UniProt O94788, whole entry: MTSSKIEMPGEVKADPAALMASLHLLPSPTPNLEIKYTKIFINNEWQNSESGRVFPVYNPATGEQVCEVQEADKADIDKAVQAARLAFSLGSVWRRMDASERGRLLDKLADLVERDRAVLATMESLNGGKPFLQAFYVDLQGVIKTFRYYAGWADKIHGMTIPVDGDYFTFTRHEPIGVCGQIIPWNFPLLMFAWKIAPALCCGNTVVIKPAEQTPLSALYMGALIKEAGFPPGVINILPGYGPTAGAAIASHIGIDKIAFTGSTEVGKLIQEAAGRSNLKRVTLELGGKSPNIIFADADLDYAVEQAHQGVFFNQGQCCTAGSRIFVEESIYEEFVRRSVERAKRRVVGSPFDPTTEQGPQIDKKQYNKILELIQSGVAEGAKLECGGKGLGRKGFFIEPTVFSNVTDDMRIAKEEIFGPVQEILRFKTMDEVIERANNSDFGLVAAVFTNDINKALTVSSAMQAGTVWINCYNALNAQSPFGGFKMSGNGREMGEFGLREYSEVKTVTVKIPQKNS
UniProt P10635, whole entry: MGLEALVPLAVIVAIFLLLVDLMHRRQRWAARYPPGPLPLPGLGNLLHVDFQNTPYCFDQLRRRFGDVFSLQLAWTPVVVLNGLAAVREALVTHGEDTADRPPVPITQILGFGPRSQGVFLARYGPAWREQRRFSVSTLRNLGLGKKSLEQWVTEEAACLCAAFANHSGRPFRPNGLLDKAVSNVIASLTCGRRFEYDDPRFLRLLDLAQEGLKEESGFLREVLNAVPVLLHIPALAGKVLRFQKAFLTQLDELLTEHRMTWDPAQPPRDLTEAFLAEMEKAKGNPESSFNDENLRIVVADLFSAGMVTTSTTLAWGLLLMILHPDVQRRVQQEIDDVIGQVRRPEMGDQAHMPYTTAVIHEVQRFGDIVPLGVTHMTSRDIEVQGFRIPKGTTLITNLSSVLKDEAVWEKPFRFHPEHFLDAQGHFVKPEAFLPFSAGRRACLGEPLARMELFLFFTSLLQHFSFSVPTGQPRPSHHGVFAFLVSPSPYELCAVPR
UniProt P08684, whole entry: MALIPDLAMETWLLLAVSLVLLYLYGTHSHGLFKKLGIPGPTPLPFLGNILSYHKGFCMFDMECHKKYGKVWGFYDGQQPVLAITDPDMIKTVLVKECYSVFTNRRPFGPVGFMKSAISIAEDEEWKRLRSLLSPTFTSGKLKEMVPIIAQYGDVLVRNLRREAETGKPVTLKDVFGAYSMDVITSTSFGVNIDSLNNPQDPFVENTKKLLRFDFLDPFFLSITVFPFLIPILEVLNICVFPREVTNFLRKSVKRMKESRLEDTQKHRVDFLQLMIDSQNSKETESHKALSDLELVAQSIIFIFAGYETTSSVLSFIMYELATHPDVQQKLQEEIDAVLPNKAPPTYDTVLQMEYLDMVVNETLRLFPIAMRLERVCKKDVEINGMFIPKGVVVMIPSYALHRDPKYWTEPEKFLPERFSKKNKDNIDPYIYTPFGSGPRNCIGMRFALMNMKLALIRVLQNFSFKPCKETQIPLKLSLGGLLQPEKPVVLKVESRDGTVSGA
UniProt P00176, whole entry: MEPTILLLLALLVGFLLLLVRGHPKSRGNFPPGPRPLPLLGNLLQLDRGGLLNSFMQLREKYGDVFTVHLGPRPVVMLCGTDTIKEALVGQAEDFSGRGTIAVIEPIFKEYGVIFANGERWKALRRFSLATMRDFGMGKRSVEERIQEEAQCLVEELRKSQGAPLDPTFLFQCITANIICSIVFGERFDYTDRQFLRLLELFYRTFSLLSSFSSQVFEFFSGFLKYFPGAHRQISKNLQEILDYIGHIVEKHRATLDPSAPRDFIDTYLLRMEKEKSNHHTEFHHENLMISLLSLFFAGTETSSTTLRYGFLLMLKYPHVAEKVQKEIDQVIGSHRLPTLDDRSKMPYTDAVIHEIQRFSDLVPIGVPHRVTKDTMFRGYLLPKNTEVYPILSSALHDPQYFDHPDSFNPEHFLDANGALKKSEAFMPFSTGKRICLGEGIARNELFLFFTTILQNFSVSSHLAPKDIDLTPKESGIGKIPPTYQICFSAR
UniProt Q51714, 1-616: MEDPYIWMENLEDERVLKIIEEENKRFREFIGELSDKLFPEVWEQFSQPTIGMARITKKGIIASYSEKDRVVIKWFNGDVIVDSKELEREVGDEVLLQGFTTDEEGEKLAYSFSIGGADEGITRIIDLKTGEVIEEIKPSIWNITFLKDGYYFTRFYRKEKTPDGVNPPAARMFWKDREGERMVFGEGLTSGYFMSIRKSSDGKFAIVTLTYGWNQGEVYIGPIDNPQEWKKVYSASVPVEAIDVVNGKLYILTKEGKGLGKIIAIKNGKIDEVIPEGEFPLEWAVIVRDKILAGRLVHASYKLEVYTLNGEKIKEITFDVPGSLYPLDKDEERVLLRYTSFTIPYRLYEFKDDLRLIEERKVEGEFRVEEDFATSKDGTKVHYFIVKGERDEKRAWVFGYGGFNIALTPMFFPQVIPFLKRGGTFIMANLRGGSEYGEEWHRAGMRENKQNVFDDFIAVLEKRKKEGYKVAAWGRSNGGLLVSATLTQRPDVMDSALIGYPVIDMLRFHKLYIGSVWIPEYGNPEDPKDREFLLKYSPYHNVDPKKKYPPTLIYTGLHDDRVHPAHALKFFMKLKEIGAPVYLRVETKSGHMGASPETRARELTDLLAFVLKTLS

| Compound | tested on | test | test system | setting | scale | endpoint | value |
| --- | --- | --- | --- | --- | --- | --- | --- |
| Cc1cccc(NC(=O)C2CC3CCC2C3)c1C (stereo not drawn) | CYP2C9 | enzyme activity, inhibitor | – | – | – | IC50 | > 30 µM |
| C[N+](C)=c1ccc2c(-c3ccccc3)c3ccc(N)cc3sc-2c1 | ABCB1 | ATPase activity, substrate | – | half-maximal ATPase stimulation | – | Km | 9.3 ± 1 µM |
| Cc1ccc(NC(=O)C2CC3CCC2C3)cc1 (stereo not drawn) | CYP2C9 | enzyme activity, inhibitor | – | – | – | IC50 | > 30 µM |
| CC(=O)Nc1ccc2c3c(cccc13)C(=O)N(CCN1CCN(CCCCN3C(=O)CN(/N=C/c4ccc(-c5ccc(Cl)cc5)o4)C3=O)CC1)C2=O | KCNH2 | – | – | – | – | Ki | 0.12 µM |
| Cc1nc(-c2ccc(C(F)(F)F)c(F)c2)sc1COc1ccc(SCC(=O)O)cc1 | HEK293T | – | – | 18 h | – | CC50 | > 100 µM |
| COc1cc([C@@H]2c3cc4c(cc3[C@@H](OC3CCCCC3)[C@H]3COC(=O)[C@H]23)OCO4)cc(OC)c1OC | Leishmania infantum | – | promastigote, iRFP | – | – | EC50 | 66.4 ± 6.8 µM |
| CC(C)c1ccc(NC(=O)C2CC3CCC2C3)cc1 (stereo not drawn) | Cytochrome P450 3A4 (CYP3A4, Homo sapiens, UniProt P08684) | enzyme activity, inhibitor | – | – | – | IC50 | > 25 µM |
| CN(C)c1ccc2c(-c3ccc(C(=O)O)s3)c3ccc(=[N+](C)C)cc-3[te]c2c1 | ABCB1 | ATPase activity, substrate | – | half-maximal ATPase stimulation | – | Km | 9.6 ± 1.1 µM |
| OCC1Nc2ccc(Cl)cc2C(C#CC2CC2)(C(F)(F)F)O1 (stereo not drawn) | Cytochrome P450 2B1 (Cyp2b1, Rattus norvegicus, UniProt P00176) | substrate, cDNA-expressed enzyme with cytochrome b5 | – | 10 µM, 30 min, added: 10 nM enzyme | baseline: rat CYP2B1 over human CYP2B6 | metabolite formation ratio | < 2 fold |
| COc1ccc(C(=O)c2c[nH]c3ccccc23)cc1 | AHR | reporter gene, agonist | HepG2 transfected XRE-luciferase | 4.5 h | – | EC50 | > 10 µM |
| O=C1CN(/N=C/c2ccc(-c3ccc(Cl)cc3)o2)C(=O)N1CCCCN1CCN(CCN2C(=O)c3cccc4cccc(c34)C2=O)CC1 | KCNH2 | – | – | – | – | Ki | 0.027 µM |
| Oc1c(Cl)cccc1CNc1nc2ccccc2n1CC1CC1 | ALDH1A2 | enzyme activity, inhibitor, NADH absorbance 340 nm | – | pH 7.5, 25 °C, 200 µM NAD+, added: 100 µM propionaldehyde | – | EC50 | 0.39 ± 0.084 µM |
| Cc1ccc(NC(=O)C2CC3CCC2C3)c(C)c1 (stereo not drawn) | CYP2C9 | enzyme activity, inhibitor | – | – | – | IC50 | > 30 µM |
| COC(=O)c1ccc(C(=O)c2c[nH]c3ccccc23)cn1 | AHR | reporter gene, agonist | HepG2 transfected XRE-luciferase | 4.5 h | – | EC50 | 3.87 µM |
| Cc1n[nH]c(C)c1CCOC(=O)c1cccc2c1oc(=O)n2C | KCNH2 | potassium current, inhibitor | – | – | – | IC50 | > 50 µM |
| COc1ccc(NC(=O)CN2CCCN(S(=O)(=O)c3cccs3)CC2)c(OC)c1 | CYP2C9 | enzyme activity, inhibitor | – | – | – | IC50 | 2.6 µM |
| COC(=O)c1cccc(C(=O)c2cn(C)c3ccccc23)n1 | AHR | reporter gene, agonist | HepG2 transfected XRE-luciferase | 4.5 h | – | EC50 | 0.329 µM |

| Compound | tested on | test | test system | setting | scale | endpoint | value |
| --- | --- | --- | --- | --- | --- | --- | --- |
| Cc1cc(SCc2sc(-c3ccc(F)c(C#N)c3)nc2C)ccc1OCC(=O)O | HEK293T | – | – | 18 h | – | CC50 | > 100 µM |
| COC(=O)[C@@H]1C(c2nc3ccccc3s2)=Cc2cc3c(cc2[C@H]1c1cc(OC)c(OC)c(OC)c1)OCO3 | Leishmania infantum | – | promastigote, iRFP | – | – | EC50 | > 100 µM |
| c1ccc(-c2ccccn2)nc1 | prolyl oligopeptidase (Pyrococcus furiosus, UniProt Q51714) | non-covalent binding, luminescence lifetime | water | concentration not given | baseline: free over bound cofactor | luminescence lifetime change | 86 ns |
| C[N+](C)=c1ccc2c(-c3ccccc3)c3cc4c5c(c3[te]c-2c1)CCCN5CCC4 | ABCB1 | ATPase activity, substrate | – | half-maximal ATPase stimulation | – | Km | 4.4 ± 0.8 µM |
| COc1ccc(NC(=O)CN2CCCN(S(=O)(=O)c3ccccc3)CC2)c(OC)c1 | CYP2D6 | enzyme activity, inhibitor | – | – | – | IC50 | > 20 µM |
| COc1ccc(CC(=O)OCc2ccc(-n3cccn3)cc2)cc1F | CYP2C19 (Homo sapiens, UniProt P33261) | inhibitor | – | 10 µM | – | inhibition | 7.7% |
| COc1ccc(S(=O)(=O)N2CCCN(CC(=O)Nc3ccc(OC)cc3OC)CC2)cc1 | CYP2D6 | enzyme activity, inhibitor | – | – | – | IC50 | > 20 µM |
| CCCn1c(NCc2ccccc2O)nc2ccccc21 | ALDH1A2 | enzyme activity, inhibitor, NADH absorbance 340 nm | – | pH 7.5, 25 °C, 200 µM NAD+, added: 100 µM propionaldehyde | – | EC50 | 2.7 ± 0.32 µM |
| COc1ccc(NC(=O)CN2CCCN(S(=O)(=O)c3ccc(C)cc3)CC2)c(OC)c1 | CYP2D6 | enzyme activity, inhibitor | – | – | – | IC50 | 13.9 µM |
| N=c1ccc2c(-c3ccccc3)c3ccc(N)cc3sc-2c1 | ABCB1 | ATPase activity, activator | sheep brain phosphatidylethanolamine | 30 min, 37 °C | baseline: basal activity | Vmax | 6.4 ± 0.6 fold |
| O=C1CN(/N=C/c2ccc(-c3ccc(Cl)cc3)o2)C(=O)N1CCCCN1CCN(CCCN2C(=O)c3cccc4cccc(c34)C2=O)CC1 | KCNH2 | – | – | – | – | Ki | 0.08 µM |
| C=CC(=O)N1CCC(c2cc(Nc3cc4n(n3)CCOC4)c3ncnn3c2)C1 (single isomer, unassigned) | TMD8 wild type | calcium flux, FLIPR | – | 1 h preincubation, added: anti-IgM | – | IC50 | > 1 µM |
| CCCn1c(NCc2cccc(F)c2O)nc2ccccc21 | ALDH1A2 | enzyme activity, inhibitor, NADH absorbance 340 nm | – | pH 7.5, 25 °C, 200 µM NAD+, added: 100 µM propionaldehyde | – | EC50 | 1 ± 0.16 µM |
| NCCNC(=O)c1cc2c([nH]c3ccccc32)c(-c2ccc(C(F)(F)F)cc2)n1 | KCNH2 | ion current, inhibitor | – | – | – | IC50 | 4.4 µM |
| COc1cc(C(=O)c2c[nH]c3ccccc23)ccn1 | AHR | reporter gene, agonist | HepG2 transfected XRE-luciferase | 4.5 h | – | EC50 | 2.6 µM |
| O=C(N[C@H](Cc1ccccc1)C(=O)O)c1sc2cc(F)ccc2c1Cl | CYP2D6 | enzyme activity | – | concentration not given | – | inhibition | no effect |

Repeated from above:
| Compound | tested on | test | test system | setting | scale | endpoint | value |
| --- | --- | --- | --- | --- | --- | --- | --- |
| OCC1Nc2ccc(Cl)cc2C(C#CC2CC2)(C(F)(F)F)O1 (stereo not drawn) | Cytochrome P450 2B1 (Cyp2b1, Rattus norvegicus, UniProt P00176) | substrate, cDNA-expressed enzyme with cytochrome b5 | – | 10 µM, 30 min, added: 10 nM enzyme | baseline: rat CYP2B1 over human CYP2B6 | metabolite formation ratio | < 2 fold |
| COc1ccc(C(=O)c2c[nH]c3ccccc23)cc1 | AHR | reporter gene, agonist | HepG2 transfected XRE-luciferase | 4.5 h | – | EC50 | > 10 µM |
| O=C1CN(/N=C/c2ccc(-c3ccc(Cl)cc3)o2)C(=O)N1CCCCN1CCN(CCN2C(=O)c3cccc4cccc(c34)C2=O)CC1 | KCNH2 | – | – | – | – | Ki | 0.027 µM |
| Oc1c(Cl)cccc1CNc1nc2ccccc2n1CC1CC1 | ALDH1A2 | enzyme activity, inhibitor, NADH absorbance 340 nm | – | pH 7.5, 25 °C, 200 µM NAD+, added: 100 µM propionaldehyde | – | EC50 | 0.39 ± 0.084 µM |
